Measured values collected from several papers.
Each line is one published result; not all experiments were run side by side. Values joined by “and” are separate records of one study, mostly repeats; a detail may differ. ± gives the spread as reported.
Cell line: A549

SMILES = O=C(NCCOCCOCCOCCNC(=O)c1cc2ccccc2c2ccccc12)c1cc(C(=O)N2CCNCCNCCNCC2)c(O)c(C(=O)N2CCNCCNCCNCC2)c1; test = cell growth or viability, MTT; conditions = 24 h; IC50 = > 1000 µM
SMILES = COC(OC)c1ccc(-c2ccc(O)cc2)c(C(=C2C=CC(=O)C=C2)c2ccc(O)cc2)c1C#Cc1ccc(O)cc1; test = cell growth or viability, MTT; conditions = 48 h; IC50 = > 50 µM
SMILES = O=S(=O)(c1ccc2c(c1)OCO2)n1cc(CCCCN2CCC(=C(c3ccc(F)c(F)c3)c3ccc(F)c(F)c3)CC2)nn1; test = cell growth or viability, ATP luminescence; conditions = 48 h; IC50 = 5.25 µM
SMILES = CC(C)[C@@H]1NC(=O)[C@@H](CCCNC(=N)N)NC(=O)[C@H]([C@@H](C)O)NC(=O)[C@@H](CCCN)NC(=O)[C@H](Cc2ccc(F)cc2)NC(=O)[C@@H](Cc2ccccc2)NC1=O; test = cell growth or viability, ATP luminescence; IC50 = > 100 µM
SMILES = Cn1ncc(-c2ccc3c(=O)[nH]nc(CN)c3c2)c1-c1c(F)c(Cl)cc(OC2CC2)c1C#N; test = cell viability, inhibitor, CellTiter-Glo; conditions = 120 h, baseline-subtracted; IC50 = 0.03 µM
SMILES = NC(=O)c1ccc(-c2ccccc2Cl)c2c3c([nH]c12)CCC(N)C3 (stereo not shown); test = cell growth or viability; conditions = 96 h; IC50 = 0.0268 µM
SMILES = CO[C@@H](C[C@H]1C(C)=CC[C@@H]2[C@]3(C)C[C@H](O[C@@H]4O[C@@H](C)[C@H](OC(=O)c5cccc(O)c5)[C@@H](O)[C@H]4O)[C@@H](O)C(C)(C)[C@H]3CC[C@]21C)[C@H](N)C(=O)O; test = cell growth or viability, CCK-8; conditions = 72 h; IC50 = 7.6 µM
SMILES = CCCCCC(=O)Oc1c(C)c(OC)c2c(c1C)OC(=O)[C@@H](CCCC)[C@]2(O)/C=C/c1ccccc1 (relative stereo); test = cell growth or viability, SRB; conditions = 72 h; IC50 = > 50 µM
SMILES = CC(CCC(=O)[O][Pt]([NH2])([NH2])([OH])([Cl])[Cl])C1CCC2C3CCC4CC(O)CCC4(C)C3CCC12C (stereo not shown); test = cell growth or viability, MTT; IC50 = 9.4 µM
SMILES = CCCC[N+]1=c2cc3c4cc2[O][Mn-2]1(=[C]=O)(=[C]=O)(=[C]=O)[n+]1ccc(cc1)C(=O)Oc1ccccc1OC(=O)c1cc[n+](cc1)[Mn-2](=[C]=O)(=[C]=O)(=[C]=O)([O]3)[N+]=4CCCC; test = cell growth, MTT; conditions = 48 h, LED light photolysis 1 h; IC50 = 5.55 ± 0.4 µM
SMILES = CNS(=O)(=O)Nc1nccc(Cc2c(C)c3ccc(Oc4ncccc4F)cc3oc2=O)c1F; test = cell viability; conditions = 7 days; IC50 = 0.736 µM
SMILES = CC(C)[C@@H]1NC(=O)[C@@H](CCCNC(=N)N)NC(=O)[C@H]([C@@H](C)O)NC(=O)[C@@H](CCCN)NC(=O)[C@H](Cc2cccc(F)c2)NC(=O)[C@@H](Cc2ccccc2)NC1=O; test = cell growth or viability, ATP luminescence; conditions = 72 h; IC50 = > 100 µM
SMILES = COc1cc(C2=CCCc3c2ccc(OC)c3OCc2ncc([N+](=O)[O-])n2C)cc(OC)c1OC; conditions = 4 h, anoxic; IC50 = 5.25 ± 0.46 µM
SMILES = C=CCOc1c(C)c(OC)c(C(=O)/C=C/c2ccccc2)c(OCC=C)c1C; test = cell growth or viability, SRB; conditions = 72 h; IC50 = > 50 µM
SMILES = COC(=O)[C@@H](NC(=O)[C@@H](NC(=O)[C@@H](NC(=O)OC(C)(C)C)C(C)C)C(C)C)C(C)C; test = cell growth or viability, SRB; IC50 = 1.8 µM and 1.13 µM and 0.79 µM
SMILES = C=CCOCO[C@H](C(=O)NC[C@@H]1C[C@@H](OC)C(C)(C)[C@@H](C[C@@H](COC)OC)O1)[C@@]1(OC)CC(=C)[C@@H](C)[C@@H](C)O1; test = cell viability, sulforhodamine B; conditions = 72 h, 37 °C, without H2O2; IC50 = 2.65 ± 1.14 µM
SMILES = CCCCCCCCCCCC(=O)Oc1c(C)c(OC)c2c(c1C)OC(=O)[C@@H](CCCCCCCCCC)[C@]2(O)/C=C/c1ccccc1 (relative stereo); test = cell growth or viability, SRB; conditions = 72 h; IC50 = > 50 µM
SMILES = Cc1ccc(C(C)C)cc1.Cc1ccc(C(C)C)cc1.Cc1ccc(C(C)C)cc1.Cc1ccc(C(C)C)cc1.O=S(=O)(O)C(F)(F)F.O=S(=O)(O)C(F)(F)F.O=S(=O)(O)C(F)(F)F.O=S(=O)(O)C(F)(F)F.c1ccc2c3c4ccccc4c(c2c1)-c1cn(nn1)-c1cc[n+](cc1)[Ru-]1[O]c2c4ccccc4c4c5c(c6ccccc6c(c25)=[O+]1)=[O+][Ru-]([O]4)[n+]1ccc(cc1)-n1cc(nn1)-c1c2ccccc2c(c2ccccc12)-c1cn(nn1)-c1cc[n+](cc1)[Ru-]1[O]c2c4ccccc4c4c5c(c6ccccc6c(c25)=[O+]1)=[O+][Ru-]([O]4)[n+]1ccc(cc1)-n1cc-3nn1; test = cell growth or viability, MTT; conditions = 24 h; IC50 = 7.5 µM
SMILES = COC(CC1C(C)=CCC2C1(C)CCC1C(C)(C)C(O)C(O)CC12C)C(N)C(=O)O (stereo not shown); test = cell growth or viability, CCK-8; conditions = 72 h; IC50 = > 10 µM
SMILES = CC(C)c1ccc(N(C)c2ccc3c(c2)OCC[C@H]3CNc2cnccc2C(=O)O)cc1; test = cell growth or viability, ATP luminescence; conditions = 7 days; IC50 = 0.0324 µM
SMILES = CCCC(=O)[O][Pt]([Cl])([Cl])[O]C(=O)CCC.N.N; test = cell growth or viability, MTT; IC50 = 4.16 µM
SMILES = Cc1nc(Nc2ccc3c(c2)/C(=C/c2ccccc2)C(=O)N3)c2ccccc2n1; test = cell growth or viability, MTT; IC50 = 42.7 µM
SMILES = CN1CCC(N[C@H]2CCc3[nH]c4c(C(N)=O)ccc(-c5ccccc5Cl)c4c3C2)CC1; test = cell growth or viability; IC50 = 2.27 µM
SMILES = O=C(NCCOCCOCCNC(=O)c1cc2ccccc2c2ccccc12)c1cc(C(=O)N2CCNCCNCCNCC2)c(O)c(C(=O)N2CCNCCNCCNCC2)c1; test = cell growth or viability, MTT; conditions = 24 h; IC50 = > 1000 µM
SMILES = CCCCCCCCCCCC(=O)Oc1c(C)c(OC)c2c(/C=C/c3ccccc3)c(CCCCCCCCCC)c(=O)oc2c1C; test = cell growth or viability, SRB; conditions = 72 h; IC50 = > 50 µM
SMILES = CCCc1cc2cc(-n3nc(C)c4c3CC(C)(C)C(C)C4=O)cc(N3CCC(O)CC3)c2c(=O)[nH]1 (racemic); test = cell growth or viability, MTS; IC50 = 14 µM
SMILES = Oc1ccc(C#Cc2cccc3c2C(c2ccc(O)cc2)(c2ccc(O)cc2)c2cc(O)ccc2-3)cc1; test = cell growth or viability, MTT; conditions = 48 h; IC50 = 13.2 µM
SMILES = CCOC(=O)/C=C1\S/C(=N\N=C\c2cccc3cc4ccccc4nc23)N(c2cccc(OC)c2)C1=O; test = cell growth or viability, MTT; conditions = 48 h; IC50 = > 50 µM
SMILES = CCCc1cc2cc(-n3nc(C4CCC4)c4c3CC(C)(C)CC4=O)cc(N3CCC(O)CC3)c2c(=O)[nH]1; test = cell growth or viability, MTS; IC50 = 6.78 µM
SMILES = O=C1CS/C(=N\N=C\c2cccc3cc4ccccc4nc23)N1c1ccccc1; test = cell growth or viability, MTT; conditions = 48 h; IC50 = 46.3 µM
SMILES = CCCC[N+]1=c2cc3c4cc2[O][Mn-2]1(=[C]=O)(=[C]=O)(=[C]=O)[n+]1ccc(cc1)C(=O)Nc1ccccc1NC(=O)c1cc[n+](cc1)[Mn-2](=[C]=O)(=[C]=O)(=[C]=O)([O]3)[N+]=4CCCC; test = cell growth, MTT; conditions = 48 h, LED light photolysis 1 h; IC50 = 2.34 ± 0.1 µM
SMILES = CCCc1cc2cc(-n3nc(C4CC4(F)F)c4c3CC(C)(C)CC4=O)cc(N3CCC(O)CC3)c2c(=O)[nH]1 (racemic); test = cell growth or viability, MTS; IC50 = 2.36 µM
SMILES = CCCC[N+]1=c2cc3c4cc2[O][Mn-2]1(=[C]=O)(=[C]=O)(=[C]=O)[n+]1ccc(cc1)C(=O)OCCOCCOC(=O)c1cc[n+](cc1)[Mn-2](=[C]=O)(=[C]=O)(=[C]=O)([O]3)[N+]=4CCCC; test = cell growth, MTT; conditions = 48 h, LED light photolysis 1 h; IC50 = 6.87 ± 0.42 µM
SMILES = CCCCn1cnc2ccc(-c3ccc(NC(=O)CC)nc3)cc2c1=O; test = cell growth or viability, CCK-8; conditions = 72 h; IC50 = 1.98 µM
SMILES = CCOC(=O)/C=C1\S/C(=N\N=C\c2cccc3cc4ccccc4nc23)N(c2ccccc2)C1=O; test = cell growth or viability, MTT; conditions = 48 h; IC50 = > 50 µM
SMILES = COc1ccccc1/C=C1\C(=O)N(C)c2ccc(N(C)c3nc(C)nc4ccccc34)cc21; test = cell growth or viability, MTT; IC50 = 5.57 µM
SMILES = CCCc1cc2cc(-n3nc(C(C)C)c4c3CC(C)(C)CC4=O)cc(N3CCC(O)CC3)c2c(=O)[nH]1; test = cell growth or viability, MTS; IC50 = 9.58 µM
SMILES = O=C1CS/C(=N\N=C\c2cccc3cc4ccccc4nc23)N1c1ccc([N+](=O)[O-])cc1; test = cell growth or viability, MTT; conditions = 48 h; IC50 = > 50 µM
SMILES = O=c1c2ccccc2[se]n1CCCCCCn1[se]c2ccccc2c1=O; test = cell growth or viability; conditions = 5 days; IC50 = 1.39 µM
SMILES = O=C(O)C(CO)NCc1cc(Cl)c(OCc2cccc(-c3ccccc3)c2Br)cc1OCc1cccnc1 (stereo not shown); test = cell growth or viability, MTT; IC50 = > 10 µM
SMILES = O=C1C(Cl)=C(Cl)C(=O)c2c(O)ccc(O)c21; test = cell growth or viability, MTT; IC50 = 14.7 µM
SMILES = CCCc1cc2cc(-n3c4c(c5ccccc53)C(=O)CC(C)(C)C4)cc(N3CCC(O)CC3)c2c(=O)[nH]1; test = cell growth or viability, MTS; IC50 = 4.21 µM
SMILES = Cc1nc(N(C)c2ccc3c(c2)/C(=C/c2ccccc2)C(=O)N3C)c2ccccc2n1; test = cell growth or viability, MTT; IC50 = 2.18 µM
SMILES = CCN(CC)c1ccc(-c2oc3cc4ccccc4cc3c(=O)c2O)cc1; test = cytotoxicity; conditions = 24 h, together with: visible light; IC50 = 10.7 ± 1.2 µM
SMILES = Cc1nc(N(C)c2ccc3c(c2)/C(=C/c2cn(C)c4ccccc24)C(=O)N3C)c2ccccc2n1; test = cell growth or viability, MTT; IC50 = 3.83 µM
SMILES = CCOC(=O)/C=C1\S/C(=N\N=C\c2cccc3cc4ccccc4nc23)N(c2ccc(OC)cc2)C1=O; test = cell growth or viability, MTT; conditions = 48 h; IC50 = > 50 µM

Excerpt of the above:
SMILES = CCOC(=O)/C=C1\S/C(=N\N=C\c2cccc3cc4ccccc4nc23)N(c2cccc(OC)c2)C1=O; test = cell growth or viability, MTT; conditions = 48 h; IC50 = > 50 µM
SMILES = CCCc1cc2cc(-n3nc(C4CCC4)c4c3CC(C)(C)CC4=O)cc(N3CCC(O)CC3)c2c(=O)[nH]1; test = cell growth or viability, MTS; IC50 = 6.78 µM
SMILES = O=C1CS/C(=N\N=C\c2cccc3cc4ccccc4nc23)N1c1ccccc1; test = cell growth or viability, MTT; conditions = 48 h; IC50 = 46.3 µM
SMILES = CCCC[N+]1=c2cc3c4cc2[O][Mn-2]1(=[C]=O)(=[C]=O)(=[C]=O)[n+]1ccc(cc1)C(=O)Nc1ccccc1NC(=O)c1cc[n+](cc1)[Mn-2](=[C]=O)(=[C]=O)(=[C]=O)([O]3)[N+]=4CCCC; test = cell growth, MTT; conditions = 48 h, LED light photolysis 1 h; IC50 = 2.34 ± 0.1 µM
